# Measurements pooled from the literature.
# Each numbered part is a random draw from the data of one study; scales do not carry over between parts. Substitutions count along the parent as printed.

# Series 1
# Target: Interferon regulatory factor 5, full length, phosphomimetic (IRF5, Homo sapiens, UniProt Q13568-2, residues 1-514, S451D/S453D/S456D/S462D)
# Technique: protein-binding microarray
# Molecule type: double-stranded DNA, one strand shown
# Medium: in vitro
# Concentration: 940 nM top
# Notes: 60-bp whole probe
# Added: salmon DNA 0.4 mg/ml
# Baseline: random background probes
# Reading: higher = stronger binding
# All sequences stand within: GCCTAGCAC … GTCTTGATTCGCTTGACGCTGCTG
Strand,fitted relative affinity [z-score]
GAGGGACTGGGTATCGGGACGTGCTAG,1.18
GACGGACTGCTTATCCTGAGGTGCTAG,-0.25
TTAGAACTGGGGGATCGATTAGTGCTA,1.44
TTGTTTTTTGGTTTCTGGTTGTGCTAG,4.71
GACGGCTTCGACTATCGGGACGTGCTA,-0.275
GACAATTCCAGTTTCGAGACGTGCTAG,4.67
TTAGATATCAGTGTCGATTAGTGCTAG,0.256
GACGGACTAGGTTTCGGGACGTGCTAG,3.28

# Series 2
# Target: RNA binding protein fox-1 homolog 2, RRM domain, GST-SBP tag (RBFOX2, Homo sapiens, UniProt O43251-10, residues 100-194)
# Technique: RNA Bind-n-Seq
# Molecule type: RNA
# Medium: in vitro
# Concentration: 365 nM
# Notes: natural RNA segment, single round, ends assumed
# Baseline: no-protein control
# Reading: higher = stronger binding
# All sequences stand within: GGGAGUUCUACAGUCCGACGAUC … UGGAAUUCUCGGGUGCCAA
# Target sequence (chain): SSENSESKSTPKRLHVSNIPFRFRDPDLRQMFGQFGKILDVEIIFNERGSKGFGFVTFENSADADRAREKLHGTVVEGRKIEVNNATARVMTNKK
Strand,RBNS enrichment (R)
CAGAUCCUGCUGGAGGGUGGUUCUCUUUAGCACUGUCCACUUUGAAUGCCGAGUGUCAUAAGAAAUUGCAUGCUAUCUUCACUCACAAUCCUGCCCUUCCCUCACAGAGC,25.2
CCUUGGCAACACUGGAGUGCACACGCCGCCACGGUUGCCCAGAAAAAGUGCCCAAGCUGCUGACGCAAACAACAACAAAUGCUGCUUAUUUGCAUGCCGACUUACAUAUA,0.987
AUGUCGAGACUUAACGAAGGCUGAUGGAAACCCAGGAAGCCCAGUGGGCAGCUUCUGCCUAGGGCAGAGCCCACAAACCAGUGCGUCUGUGCAGAACGUCUGGAUGGACA,0.324
AAAGAUUUGUAUCCUGGCCUGUUUAUUCAGGUGGGAGAUGUUCUGUAUAAUUUUGAGGUAUAGCUUGAACUCCUAGAACAAGAGUUAAAAGUUCUUUUUAGCUCAUUCAC,0.269
CCUUCUGAAAAGAAGCCCAGGGGAUGGGGCCUUCAAGGUGCCGGUUUGGAGUUCAAAUCCUGCUCCUGCAGAGGGGACCUGGGGGUCCAGGCUGGGAGAUGGGGGAACCU,0.314
ACCAGGUUGAUUUUAGUAACCCAAUUGCUUUGAUUUGACAUUAAUGUAGUCUUACAGGGCUGUGCUUGCUGGGCAUGCUUUUACGUCUGUGAGAUAAUUUCGGUUCAGUA,4.14
UAGAAACAGAUAGCAUUAAAGUACUUCCUUCCCACUCCUUUCUCUGGCUCUCUCUCCCCCACUUGUUCUGACUUAGGAUAAUGAUCUCUAUUUUGUUUGUUUCUCAAGUG,0.578

# Series 3
# Target: CCNF, cyclin fold, Cln2 fusion (human)
# Technique: yeast growth competition, sequencing
# Medium: yeast
# Notes: strong parent motif
# Baseline: not given
# Reading: higher = stronger binding
# Starting sequence: CDC6 docking peptide (human); TLKGRRLVFDNQL
Change,normalised enrichment score
TLKGRRNVFDNQL [L7N],0.897
TLKGRRLVFWNQL [D10W],8.19
TLKGRRLVFDNCL [Q12C],8.7
TLKGRRLVFDNFL [Q12F],10.3
TLKGRRFVFDNQL [L7F],0.757
TLKARRLVFDNQL [G4A],7.9
TLKGRRLVFLNQL [D10L],6.76
TLKGRRLVFDRQL [N11R],8.65

# Other studies, line by line
Substance,target,assay,test system,conditions,scale,endpoint,value
"PhoQ, residues 284 288 289 292 302 303 ASVMEA","PhoP, residues 12 14 15 18 19 SQCLL (Escherichia coli, UniProt P23836)","Sort-seq, item: YFP reporter",E. coli,"PhoQ-PhoP variant library, added: 10 µM Mg2+","baseline: high Mg2+ state, higher = stronger signaling",fold induction,14.6

# A few entries again (series 3):
Change,normalised enrichment score
TLKGRRFVFDNQL [L7F],0.757
